Results from different studies.
Each numbered part is a random draw from the data of one study; scales do not carry over between parts. Positions count from the first letter of the parent shown.

Set 1
Target: Prothrombin, mature alpha-thrombin (F2, Homo sapiens, UniProt P00734)
Method: aptamer microarray, sandwich
Form: DNA with 2'F-ANA
Sample: in vitro
Concentration: 200 nM
Notes: whole 15-mer aptamer, many near background
Added: Cy3 exosite-II aptamer, 400 nM
Direction: higher = stronger binding
Strand: GGTTGGTGTGGTTGG
Under “mean fluorescence intensity”, `2'F-ANA at 1 4 10 11 12 14` is recorded as 69.1 a.u.
`2'F-ANA at 6 7 10 11 13 14`: “mean fluorescence intensity” 128 a.u.
`2'F-ANA at 1 2 4 5 8 10 12 13 15`: “mean fluorescence intensity” 48.7 a.u.
For `2'F-ANA at 1 2 3 5 6 7 9 10 11 13 14`, “mean fluorescence intensity” read 46 a.u.
`2'F-ANA at 4 5 8 12 13 15`: “mean fluorescence intensity” 99 a.u.

Set 2
Target: CCNF, cyclin fold, Cln2 fusion (human)
Method: yeast growth competition, sequencing
Sample: yeast
Notes: strong parent motif
Relative to: not given
Direction: higher = stronger binding
Starting sequence: WEE1 docking peptide (human); HKTFRKLRLFDTP
`HKTFSKLRLFDTP [R5S]`: “normalised enrichment score” 1.86.
`HVTFRKLRLFDTP [K2V]` — result for “normalised enrichment score”: 1.26.
`HKTFRKWRLFDTP [L7W]`: “normalised enrichment score” 2.01.
Under “normalised enrichment score”, `HKTHRKLRLFDTP [F4H]` is recorded as 3.23.
`HQTFRKLRLFDTP [K2Q]` — result for “normalised enrichment score”: 2.65.

Set 3
Target: Sal-like protein 4, full length isoform B (SALL4, Homo sapiens, UniProt Q9UJQ4-2, residues 1-616)
Method: universal PBM
Form: double-stranded DNA, one strand shown
Sample: in vitro
Concentration: not given
Notes: 8-mer, flanks averaged, mean of replicates
Direction: higher = stronger binding
`ACGGCCTA` gave an E-score of -0.135.
`CAACTCAG` gave an E-score of -0.0498.
The E-score of `GTAGGGTA` is reported as 0.159.
`GAGCGAGA` has an E-score of -0.0906.
For `ACTAAGTC`, the E-score was 0.041.
With `GCTTGTTA` the E-score was 0.0541.
For `GCAACTCA`, the E-score was -0.0926.

Further values, each from its own experiment
`PhoQ, residues 284 288 289 292 302 303 AEGLLW` has a fold induction of 6.9 (PhoP, residues 12 14 15 18 19 LHTVM (Escherichia coli, UniProt P23836); Sort-seq, measured: YFP reporter; E. coli; PhoQ-PhoP variant library, added: 10 µM Mg2+; relative to: high Mg2+ state, higher = stronger signaling).

For quick reference, copied from above (set 2):
`HKTFRKWRLFDTP [L7W]`: “normalised enrichment score” 2.01.
